# Assay results gathered from unrelated publications.
# Protocols differ between the studies behind these lines. ± gives the spread as reported.
# Matrix: plasma
SMILES,assay,system,setting,plasma concentration
Cn1cc(-c2ccncc2)c(-c2ccc(OCc3ccc4ccccc4n3)cc2)n1,,rhesus monkey,"subcutaneous, 0.211 mg/kg, 1 h",36.8 ng/mL
C[C@H](Oc1ccc(-c2nc(-c3ccc4[nH]cnc4c3)no2)cc1C(F)(F)F)C(F)(F)F,,"cynomolgus monkey, aneurysm model","0.1 mg/kg once daily, 2 h post-dose, 2 weeks dosing",15 ± 3.9 nM
CSc1cc(Oc2ccnc3[nH]c(=O)cnc23)ccc1NC(=O)Nc1cc(C(C)(C)C)nn1-c1ccccc1,,female NSG and nude mice,"oral, 20 mg/kg/day, 1 h, end of therapy",~50000 nM
S=C(NCCCc1c[nH]cn1)NCCCN(Cc1ccc(Cl)c(Cl)c1)c1ccc(Br)cn1,,male C57BL/6 mice,"intraperitoneal, 30 mg/kg, 1 h",3740 ng/mL
Cc1c(C(=O)NN2CCCCC2)nc(-c2ccc(Cl)cc2Cl)n1-c1ccc(OS(=O)(=O)CCC(F)(F)F)cc1,LC-MS/MS,cynomolgus monkey 1,"intravenous infusion, 0.3 mg/kg, 90 min, total concentration mid-point of PET",38 nM
O=[N+]([O-])c1ccc(CNc2nc(NCc3cccc(C(F)(F)F)c3)nc3[nH]cnc23)cc1,,chow-fed mice,"intraperitoneal, 20 mg/kg, 6 h",5000 nM
Cc1c(C(=O)NN2CCCCC2)nn(-c2ccc(Cl)cc2Cl)c1-c1ccc(Cl)cc1,LC-MS/MS,cynomolgus monkey 5,"intravenous infusion, 0.5 mg/kg, 90 min, total concentration mid-point of PET",389 nM
Cc1c(C)n(Cc2cccc(OC(C)(C)C(=O)O)c2)c2ccc(C(=O)N[C@@H](C)c3ccc(C(C)(C)C)cc3)cc12,,"C57BL/6 mice, diet-induced obese, high-fat diet","oral, 22.1 mg/kg/day, 4 weeks, added: rosiglitazone 24.2 mg/kg/day",14200 nM
Cc1c2c(n(-c3ccc(Cl)cc3Cl)c1-c1ccc(OS(=O)(=O)CCC(F)(F)F)cc1)CCN(N1CCCCC1)C2=O,LC-MS/MS,cynomolgus monkey 2,"intravenous infusion, 0.06 mg/kg, 90 min, total concentration mid-point of PET",23 nM
COc1ccc2c(c1)CN(Cc1ccc(C(=O)O)cc1)CCS2,,mdx mice,"oral, drinking water, 50 mg/kg, 12 wk treatment, 2 h after water withdrawal",5890 ng/mL
